# Results collected from several papers.
# Every numbered part comes from another study and shows a few of its results, in no order.
# UniProt Q7L7X3, sequence (whole entry, looked up): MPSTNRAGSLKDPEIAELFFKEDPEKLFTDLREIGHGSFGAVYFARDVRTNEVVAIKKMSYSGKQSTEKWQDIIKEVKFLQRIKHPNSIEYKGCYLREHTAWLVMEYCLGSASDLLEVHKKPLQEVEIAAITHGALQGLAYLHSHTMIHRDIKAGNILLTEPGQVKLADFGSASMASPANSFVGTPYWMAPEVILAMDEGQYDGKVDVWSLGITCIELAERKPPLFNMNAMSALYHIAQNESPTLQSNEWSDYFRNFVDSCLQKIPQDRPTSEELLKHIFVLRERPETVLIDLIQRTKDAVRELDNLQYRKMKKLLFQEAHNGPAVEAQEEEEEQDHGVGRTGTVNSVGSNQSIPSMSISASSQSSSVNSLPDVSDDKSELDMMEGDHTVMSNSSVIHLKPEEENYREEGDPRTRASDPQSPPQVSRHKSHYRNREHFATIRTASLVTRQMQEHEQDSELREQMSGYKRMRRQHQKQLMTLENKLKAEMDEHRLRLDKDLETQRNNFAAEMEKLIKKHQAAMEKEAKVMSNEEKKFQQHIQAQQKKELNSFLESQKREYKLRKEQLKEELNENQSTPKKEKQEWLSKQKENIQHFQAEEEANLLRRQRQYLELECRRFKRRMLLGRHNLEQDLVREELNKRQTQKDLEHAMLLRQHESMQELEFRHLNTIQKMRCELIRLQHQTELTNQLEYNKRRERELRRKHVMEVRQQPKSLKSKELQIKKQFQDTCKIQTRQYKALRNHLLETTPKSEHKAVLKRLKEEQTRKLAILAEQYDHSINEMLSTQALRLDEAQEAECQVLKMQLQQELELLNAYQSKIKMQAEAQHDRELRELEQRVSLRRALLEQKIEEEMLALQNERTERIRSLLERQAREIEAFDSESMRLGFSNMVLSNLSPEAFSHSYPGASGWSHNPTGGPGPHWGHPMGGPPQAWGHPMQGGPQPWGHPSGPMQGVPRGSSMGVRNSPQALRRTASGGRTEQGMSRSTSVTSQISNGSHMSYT
# UniProt P31645, sequence (whole entry, looked up): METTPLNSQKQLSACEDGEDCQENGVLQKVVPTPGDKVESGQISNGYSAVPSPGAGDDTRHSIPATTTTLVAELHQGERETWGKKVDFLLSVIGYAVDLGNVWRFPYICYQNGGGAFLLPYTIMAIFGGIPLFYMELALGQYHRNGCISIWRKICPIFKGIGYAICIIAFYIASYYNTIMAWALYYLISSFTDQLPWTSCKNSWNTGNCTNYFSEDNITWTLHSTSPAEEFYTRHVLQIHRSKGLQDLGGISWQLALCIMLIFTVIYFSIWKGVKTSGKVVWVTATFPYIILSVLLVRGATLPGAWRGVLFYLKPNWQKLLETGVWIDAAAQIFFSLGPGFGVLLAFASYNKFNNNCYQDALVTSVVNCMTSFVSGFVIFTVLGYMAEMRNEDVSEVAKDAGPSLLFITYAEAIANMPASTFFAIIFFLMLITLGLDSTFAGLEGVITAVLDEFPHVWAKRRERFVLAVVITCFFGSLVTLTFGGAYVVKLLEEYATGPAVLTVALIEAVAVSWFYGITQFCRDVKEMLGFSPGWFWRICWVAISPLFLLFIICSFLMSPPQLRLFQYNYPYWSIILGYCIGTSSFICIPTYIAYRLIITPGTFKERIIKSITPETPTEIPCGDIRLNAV
# UniProt P10721, sequence (whole entry, looked up): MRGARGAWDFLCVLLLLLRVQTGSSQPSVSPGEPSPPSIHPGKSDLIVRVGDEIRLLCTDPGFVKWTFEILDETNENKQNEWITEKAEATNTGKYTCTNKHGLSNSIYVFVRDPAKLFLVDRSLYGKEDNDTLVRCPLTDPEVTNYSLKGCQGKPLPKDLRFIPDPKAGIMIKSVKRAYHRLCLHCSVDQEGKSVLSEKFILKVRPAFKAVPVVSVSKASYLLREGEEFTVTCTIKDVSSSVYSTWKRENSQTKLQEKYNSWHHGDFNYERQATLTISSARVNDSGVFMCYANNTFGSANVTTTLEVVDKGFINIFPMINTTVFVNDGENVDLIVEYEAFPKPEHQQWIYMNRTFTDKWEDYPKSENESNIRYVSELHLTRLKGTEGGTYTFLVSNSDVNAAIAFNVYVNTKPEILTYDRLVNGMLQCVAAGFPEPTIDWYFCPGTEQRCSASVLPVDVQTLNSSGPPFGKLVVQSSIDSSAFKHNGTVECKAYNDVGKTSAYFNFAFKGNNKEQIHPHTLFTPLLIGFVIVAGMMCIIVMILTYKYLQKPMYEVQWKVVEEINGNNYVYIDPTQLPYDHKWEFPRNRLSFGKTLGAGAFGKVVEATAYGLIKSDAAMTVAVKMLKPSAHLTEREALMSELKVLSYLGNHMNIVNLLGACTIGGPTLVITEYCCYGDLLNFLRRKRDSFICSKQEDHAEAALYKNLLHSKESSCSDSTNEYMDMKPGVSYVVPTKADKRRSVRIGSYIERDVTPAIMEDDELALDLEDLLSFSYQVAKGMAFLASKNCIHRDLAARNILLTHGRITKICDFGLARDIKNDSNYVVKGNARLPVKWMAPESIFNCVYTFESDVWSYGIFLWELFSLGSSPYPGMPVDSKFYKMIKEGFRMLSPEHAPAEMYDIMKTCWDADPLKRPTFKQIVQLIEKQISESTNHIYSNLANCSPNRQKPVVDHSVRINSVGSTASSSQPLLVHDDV
# UniProt O15146, sequence (whole entry, looked up): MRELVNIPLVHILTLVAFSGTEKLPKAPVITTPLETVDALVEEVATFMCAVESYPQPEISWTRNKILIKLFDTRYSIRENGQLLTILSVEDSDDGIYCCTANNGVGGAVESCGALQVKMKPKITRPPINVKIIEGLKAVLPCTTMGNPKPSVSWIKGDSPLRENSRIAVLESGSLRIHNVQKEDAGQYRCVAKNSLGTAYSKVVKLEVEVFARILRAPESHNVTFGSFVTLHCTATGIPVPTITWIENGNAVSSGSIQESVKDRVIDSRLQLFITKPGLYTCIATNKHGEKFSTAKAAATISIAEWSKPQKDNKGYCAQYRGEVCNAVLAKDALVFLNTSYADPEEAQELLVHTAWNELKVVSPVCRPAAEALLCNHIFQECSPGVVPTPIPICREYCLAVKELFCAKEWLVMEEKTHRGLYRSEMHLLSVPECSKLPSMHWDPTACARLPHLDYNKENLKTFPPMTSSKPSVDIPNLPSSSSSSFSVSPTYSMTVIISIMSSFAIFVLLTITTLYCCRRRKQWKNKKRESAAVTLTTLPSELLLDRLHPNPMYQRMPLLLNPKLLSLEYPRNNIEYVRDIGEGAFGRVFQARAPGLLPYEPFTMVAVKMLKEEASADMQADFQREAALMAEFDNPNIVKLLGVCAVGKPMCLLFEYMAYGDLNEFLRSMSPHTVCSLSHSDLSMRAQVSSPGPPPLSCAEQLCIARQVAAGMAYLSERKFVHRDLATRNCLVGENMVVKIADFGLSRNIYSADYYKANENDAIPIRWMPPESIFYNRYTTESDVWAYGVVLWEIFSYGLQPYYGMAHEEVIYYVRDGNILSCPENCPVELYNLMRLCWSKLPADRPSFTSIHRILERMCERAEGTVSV

# Sample 1 — organism: Plasmodium berghei; cells: Huh-7; strain: liver stage; tested at: 10 µM; time: 24 h; reference: control
SMILES,parasite load [%]
C=C1CC[C@H](O)C/C1=C/C=C1\CCC[C@]2(C)[C@@H]([C@H](C)CCCC(C)C)CC[C@@H]12,78.5
CCN1C[C@]2(COC)[C@H](O)C[C@H](OC)[C@@]34[C@@H]5C[C@@]6(O)[C@H](OC(=O)c7ccccc7)[C@@H]5[C@@](OC(C)=O)([C@@H]([C@H](OC)[C@H]23)[C@@H]14)[C@@H](O)[C@@H]6OC,99.8
O=C1CN=C(c2ccccc2Cl)c2cc([N+](=O)[O-])ccc2N1,90.4
CC(=O)[C@@]12O[C@](C)(c3ccccc3)O[C@@H]1C[C@H]1[C@@H]3CCC4=CC(=O)CC[C@]4(C)[C@H]3CC[C@@]12C,17.3

# Sample 2 — SMILES: CC(C)(C)c1cc(C=C(C#N)C#N)cc(Br)c1O; effect on: enzyme activity; action: inhibitor; tested at: 0.5 µM
target,how to read,remaining activity [%]
"KIT (Homo sapiens, UniProt P10721)",reference: control,97.9
"TAOK1 (Homo sapiens, UniProt Q7L7X3)",,97.9
"MUSK (Homo sapiens, UniProt O15146)",,103

# Single results of other studies
SMILES,target or system,assay,test system,conditions,quantity,value
CC(C)n1cnc(-c2ccc(F)cc2)c1-c1ncc(C(=O)Nc2ccc(N3CCN(C)CC3)cc2)[nH]1,,,"human, idiopathic pulmonary fibrosis","60 mg once daily, trial, treatment-emergent",patients with influenza-like illness,0%
COc1ccc2c(c1)O[C@H](c1ccc(OC)c(OC)c1)C[C@@H]2NC(=O)C1(c2ccc3c(c2)OC(F)(F)O3)CC1,"SLC6A4 (Homo sapiens, UniProt P31645)",cell-free assay,,10 µM,inhibition,-12.4%
